Experimental data gathered from unrelated publications.
A part holds a random share of what one study measured. Substitutions count along the parent as printed.

Sample 1
Target: Ras GTPase-activating protein-binding protein 1, C-terminal RGG region (G3BP1, Homo sapiens, UniProt Q13283)
Chain of UniProt Q13283 (whole entry, looked up): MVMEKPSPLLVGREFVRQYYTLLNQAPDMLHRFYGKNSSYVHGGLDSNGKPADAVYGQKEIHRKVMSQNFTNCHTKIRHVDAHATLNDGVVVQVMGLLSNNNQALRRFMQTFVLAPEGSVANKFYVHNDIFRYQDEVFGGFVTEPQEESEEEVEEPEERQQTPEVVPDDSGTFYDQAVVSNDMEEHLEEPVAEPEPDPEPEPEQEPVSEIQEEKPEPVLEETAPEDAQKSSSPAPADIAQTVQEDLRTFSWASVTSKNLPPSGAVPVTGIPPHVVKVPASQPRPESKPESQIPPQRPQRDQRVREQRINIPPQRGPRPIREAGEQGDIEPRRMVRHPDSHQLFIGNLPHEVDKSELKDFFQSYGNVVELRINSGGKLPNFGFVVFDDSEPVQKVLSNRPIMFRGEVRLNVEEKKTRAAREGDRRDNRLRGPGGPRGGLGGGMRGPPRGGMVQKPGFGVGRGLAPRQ
Method: RNA Bind-n-Seq
Form: RNA
Medium: in vitro
Tested at: 1 µM
Notes: whole 134-nt RNA, ends assumed
Together with: 150 mM KCl
Relative to: input library
Reading: higher = stronger binding
Constant ends, left off below: GGGAGUUCUACAGUCCGACGAUC … UGGAAUUCUCGGGUGUCAAGG
Sequence | log2 enrichment
CUCAAGUCCUGUGCUACACAUCGUAUGUACCGAAUCGGAAAAAAAGGUGGAGGAAAGUAUUAUGUUACGCCGUUCGGAUCUGCACUUCCA | -1.24
UCCUGUGCUACACAUCGUAUGUACCGAAUCGGGGUGGGGAAAAAAAGGGGAAAAAGGGGAAAGUAUUAUGUUACGCCGUUCGGAUCUGCA | 1.27
UGUGCUACACAUCGUAUGUACCGAAUCGGGGUUUUUUUGGGGUUUUUUUGGGGAAAAAGGGGAAAGUAUUAUGUUACGCCGUUCGGAUCU | -0.251
AAGUCCUGUGCUACACAUCGUAUGUACCGAAUCGGCCCCGGGCCCCGGGGCCCCGGAAAGUAUUAUGUUACGCCGUUCGGAUCUGCACUU | -1.82
UCCUGUGCUACACAUCGUAUGUACCGAAUCGGGGUUUUUGGGGUUUUUUUGGGGUGGGGAAAGUAUUAUGUUACGCCGUUCGGAUCUGCA | 1.26
UUUUCUGUUUGAAACAGUUUUAUACUUUCUGAUAUAGUACUUGAAAUUCUUACCAGAAAAUUACUUUGGAGUUUUGAAGCCUUUAUUAAU | -1.07
UGUGAGAUUAAACUUGCCCCCAAACGAUCUCGUUUGGAGACUAGAGCUGGAGAAGAAGAUGAAGGAGAAGAGGAUUCUGAUUCUGAUUAU | -1.65
UUUCCAGCAGUACCAGCUCCAGCCAGGAUCACCCUCUCUACUCUGGGCACCCAUCCCUUCCACUAAGUGGUGCUAUUGCUGCUUUUGCCU | 0.506
UCCUGUGCUACACAUCGUAUGUACCGAAUCGGGGCCCCCCGGCCCCCCGGCCCCCCGGGAAAGUAUUAUGUUACGCCGUUCGGAUCUGCA | -1.31
CUCAAGUCCUGUGCUACACAUCGUAUGUACCGAAUCGGAGGUUUUUUUGGAGGAAAGUAUUAUGUUACGCCGUUCGGAUCUGCACUUCCA | -1.21
CUGUGCUACACAUCGUAUGUACCGAAUCGGGGCCCCCCCGGCCCCCCCGGGGCCCCCCCGGGAAAGUAUUAUGUUACGCCGUUCGGAUCU | -1.93
UCCUGUGCUACACAUCGUAUGUACCGAAUCGUGUGUGUGUGUGUGUGUGUGUGUGUGUGUAAAGUAUUAUGUUACGCCGUUCGGAUCUGC | 1.48
CACAGACAACACGCACCCACACAGACACAGAGGGAAGGGGUUGGGAUGGGGACAGAGUGCACAGCAGGGCGGGGUAGGACCCCAGCCCCU | 0.0545
GUGCUGGCUGGCCACGGUCACCUGUAUUCCCGCAUCCCAGGCCUGCUCAGCCCCCAUCCCCUGCUGCAGCUGAGCUACACGGCCACCGAC | 0.691

Sample 2
Target: RNA binding protein fox-1 homolog 2, RRM domain, GST-SBP tag (RBFOX2, Homo sapiens, UniProt O43251-10, residues 100-194)
Method: RNA Bind-n-Seq
Form: RNA
Medium: in vitro
Tested at: 365 nM
Notes: natural RNA segment, single round, ends assumed
Relative to: no-protein control
Reading: higher = stronger binding
Constant ends, left off below: GGGAGUUCUACAGUCCGACGAUC … UGGAAUUCUCGGGUGCCAA
Target sequence (chain): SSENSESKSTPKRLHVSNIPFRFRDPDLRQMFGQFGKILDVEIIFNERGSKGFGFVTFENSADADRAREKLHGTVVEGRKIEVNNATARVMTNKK
Sequence | RBNS enrichment (R)
UCAACUUUAAUCAAGUUGUAACUUAUAUUGAAGACAAUUUGAUACAUAAUAAAAAAUUAUGACAAUGUCCUGGACUGGUUUUUGUUUUGUUUAAUUAUUUUGAGAGCUAU | 1.33
CUUUUUCUAUUUUCUGAUUUAAAAGUCGCUUUUGAAUAUGACCAUGAGAAACCAAGAAAUGCUGCUUGUGUGGUGCUCUGCUUCCUGAGGAUUUGGCUGGAAGGGGAUUC | 0.881
AGGGCACAAACCACUCCACAGUCCCAGUGUGGAGUCACAGUCUAGAGAGAAUUGGAAAUGCACGUGCUUAAAUGAUACAGCUUUAAUCUGUAUUAUGACUGCUGGUGGUA | 0.498
AAUCAUUUGAGGGGUGUUUUGAUUUGGUUUGGUUUUUGUUUCUGUCUUUUUGGUCCAUUCAUUCACUGUUUAAAAGUUUAUGAUUCUUCCAAAAAUGAAUAUAGUUUCCU | 0.855
UUGCCACCCUCAUAGCUUUCCCACAUCUUGUAGGUGCCAUAUACAAUGCCUUAAUGUAAUUAGCCUCAGUUUGAGGACACCAUACAAGACGUGGGACACCAUUCAAUUGA | 0.413
UAAAUGCUCUUAUUUACAGAUCAGAAAACUAACACCAGUGUCAGGAUCACAGUAUGGGAAUGACUGAUGUGACCUUGAAUGCAGCUUGGUUUGACUGACAUUAAAGCCAG | 7.51
CAAGCAUAGGUUUUCCCAGACCACAAUGCUGAUAUAUCUUAUUUAAUGCAGACUGUAUUCUUGCAGCGUGUUGUUUCCUUUGUGACUCAAGGUUGAAUUAAAAUGCCUGU | 0.365
AGGCAUCUAUGGAGAUUAUUUUUUUGCUUCAUUUUAUAAAGUUGUAUUUAGAAAAGUCUUAAGUAUUGUGCUUUGUAAAGAAGAUGAUUAAAAUGAAAUUUUGUGAGAAU | 1.01
AAGGUGUGUGCCUCCAUACUCUUGACACCAGUUUUCAGUUGAGGAUUGUUGAGCAUAGCUGGCUUGCCCAAUCUCACAGUGGGUAGGAAGGAGAUGAAGUUUGGAAUCCA | 0.757
CACCCCGUCUGUGUCCCCCAUGAAGGCAGCUGAGCUUUCAGAGCUGGGUUCAAAAAAAAAAAUUCCAGUGUCUGUAUACAGGAGCACUUGGUUUGGGGGUUCAGGCUCUA | 0.33
UCUGGGUGGUCUGAAUAUUAAAGCUCUUCAUUUCUGGAGAUGGGGCAGCAGGUGGCUCUUCUGCUGGGGCUGACUUGUCCAGAAGGGGACAAAGUGCAAUACAGAGCCUU | 0.559
UGCCUCGCUGGCUUCCUCCUUUUCACACACUCCAAUACUUUAAUGCAUGGAACAGGUCUGCCUAUGUGUAGUGUGGGUGUCCACUUCAGCCUAGUGUAGAGGACCUCUCG | 2.03

Sample 3
Target: CCND3, cyclin fold, Cln2 fusion (human)
Method: yeast growth competition, sequencing
Medium: yeast
Notes: weak parent motif
Relative to: not given
Reading: higher = stronger binding
Starting sequence: BRCA2 docking peptide (human); PSIKRNLLNEFDR; partner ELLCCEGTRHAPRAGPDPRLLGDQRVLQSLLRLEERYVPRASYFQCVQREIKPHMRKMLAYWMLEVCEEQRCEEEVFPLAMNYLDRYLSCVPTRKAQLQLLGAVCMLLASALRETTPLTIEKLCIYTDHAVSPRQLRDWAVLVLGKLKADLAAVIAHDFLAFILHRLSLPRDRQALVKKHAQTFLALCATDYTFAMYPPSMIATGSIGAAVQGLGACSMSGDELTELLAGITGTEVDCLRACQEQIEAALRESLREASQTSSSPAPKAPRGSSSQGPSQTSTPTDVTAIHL
Variant | normalised enrichment score
PSIKRNHLNEFDR [L7H] | 0.0681
PSILRNLLNEFDR [K4L] | 0.0564
PSIKRTLLNEFDR [N6T] | 0.149
GSIKRNLLNEFDR [P1G] | 0.102
PSIKLNLLNEFDR [R5L] | 0.0382
PSPKRNLLNEFDR [I3P] | 0.151
PSIKRRLLNEFDR [N6R] | 0.182
PSIKRCLLNEFDR [N6C] | -0.00718
PSIPRNLLNEFDR [K4P] | 0.133
PSIKKNLLNELDR [R5K F11L] | -0.467
PSIKINLLNEFDR [R5I] | 0.124
PSIKRNLLNEFRR [D12R] | 0.174
PSIKRNELNEFDR [L7E] | 0.0685
PSIKANALNEFDR [R5A L7A] | 0.202
PSSKRNLLNEFDR [I3S] | 0.121
PSIKRNLLNIFDR [E10I] | 0.077

Sample 4
Target: Sal-like protein 4, full length isoform B (SALL4, Homo sapiens, UniProt Q9UJQ4-2, residues 1-616)
Method: universal PBM
Form: double-stranded DNA, one strand shown
Medium: in vitro
Tested at: not given
Notes: 8-mer, flanks averaged, mean of replicates
Reading: higher = stronger binding
Sequence | E-score
AAGCCCTG | -0.242
GGGATAAA | 0.154
GAGAGGGC | -0.367
ACTTCTGA | 0.084
CGGCGTCA | -0.243
CACTACTG | -0.0207
GAGGGAGC | -0.292
GAGCACCC | -0.312
ATCCATCG | -0.0128
CCCGAACC | -0.323
GCGTAACC | 0.0112
CCAATTCG | -0.0228
GAAGACGC | -0.124
AGTGGGTG | 0.00475
CACGTATG | 0.133
CAGAAGGA | -0.0747
CTGAAAGA | 0.0248
GAGAAAGC | -0.0474
CGTGACTC | -0.129
GGGTCAAC | -0.171
CCAAAGCC | -0.141
CCGTAACC | -0.134
TATCGTCA | 0.0879
ACGTTGTC | -0.0154
TAAATCGA | 0.209

Sample 5
Target: Histone acetyltransferase KAT6A, winged helix 1, GST fusion (KAT6A, Homo sapiens, UniProt Q92794, residues 1-85)
Method: protein binding microarray
Form: double-stranded DNA, one strand shown
Medium: in vitro
Tested at: not given
Notes: 8-mer, flanks averaged, mean of 2 arrays, mostly near background
Relative to: not given
Reading: higher = stronger binding
Construct (chain): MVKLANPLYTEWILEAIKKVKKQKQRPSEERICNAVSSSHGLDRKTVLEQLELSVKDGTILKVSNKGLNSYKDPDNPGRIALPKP
Sequence | E-score
ACTCTCGG | 0.119
TGAAAGAA | -0.181
ACATCGCG | 0.301
ATATGGTG | -0.0967
GACCATAA | -0.0499
AACAGGTC | -0.0988
CGTAAAGC | 0.18
CAACGAGC | -0.0575
CTCTGGAA | -0.145
AAAGTTGG | -0.347
TTCGCAAA | -0.0351
ACGAGGCG | 0.2
GTGATACA | -0.0823
TACCCGCA | 0.291
GTCATCTA | -0.046
GATGTACC | -0.0871
GAGGCATC | -0.0498
AAGATACC | 0.0336
GGACAGAA | -0.126
GATACGGC | 0.377
AGGGTTGC | -0.2
ACGCCAGT | -0.0594
CGTCAAGA | 0.0195
ATGAAACG | 0.0687
AATGTGTG | -0.109
